{"data": "Published values from different studies", "note": "Numbered parts are unrelated; each lists some results of a single study. Substitutions count along the parent as printed."}
{"data": "Study 1", "target": "RING finger protein unkempt homolog, zinc fingers 1-6, GST-SBP tag (UNK, Homo sapiens, UniProt Q9C0B0, residues 30-357)", "method": "RNA Bind-n-Seq", "form": "RNA", "matrix": "in vitro", "concentration": "not given", "setting": "RNA with constant flanks, human and mouse sites, ends assumed", "relative to": "input RNA pool", "direction": "higher = stronger binding", "constant ends, left off below": "GGGAGUUCUACAGUCCGACGAUC … CAACAGAGGAUUGAGCAUCA", "chain of UniProt Q9C0B0 (30-357, looked up)": "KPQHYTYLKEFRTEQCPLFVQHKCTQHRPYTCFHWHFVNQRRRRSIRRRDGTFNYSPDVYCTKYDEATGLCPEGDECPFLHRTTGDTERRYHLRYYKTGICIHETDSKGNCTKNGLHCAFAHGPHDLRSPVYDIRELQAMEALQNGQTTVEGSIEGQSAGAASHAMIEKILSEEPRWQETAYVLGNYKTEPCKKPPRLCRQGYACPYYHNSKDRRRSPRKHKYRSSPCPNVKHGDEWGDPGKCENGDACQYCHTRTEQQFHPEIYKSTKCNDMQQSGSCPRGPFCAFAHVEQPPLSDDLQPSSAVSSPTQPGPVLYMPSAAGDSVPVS"}
{"Sequence": "AAGGAGCCGGUGCUGGUGGUGUCCUUCUCUGUCUGGGGCCUCGCUAUAAUUAUGCCCAUGAUUAGCCCCUACACCAAGUAUGCUAGCAUGAUCAACAAGGCCACACCCUACAACUACCCA", "bound/input enrichment [ratio]": 0.171}
{"Sequence": "GGGUUUUCUGCCCCAAAAGACCAACAAGUAGUCACAGCAGUAGAGUACCAAGAGGCUAUUUUAGCCUGCAAAACCCCAAAGAAGACUGUUUCCUCCAGAUUAGAGUGGAAGAAACUGGGU", "bound/input enrichment [ratio]": 0.331}
{"Sequence": "AAACUCUCUAGCAAAACCACUGCUAAGUUAUCCACUAGUGCUAAAAGAAUUCAGAAGGAGCUAGCUGAAAUAACCCUUGAUCCUCCUCCUAAUUGCAGUGCUGGGCCUAAAGGAGAUAAC", "bound/input enrichment [ratio]": 0.594}
{"Sequence": "GAGCAUAAAGCUGAGAAAGUCCCAGCCGUAGCUAACUACAUUAUGAAAAUACACAAUUUUACUAGCAAAUGCCUCUACUGUAAUCGCUAUUUGCCUACAGAUACCCUACUCAACCAUAUG", "bound/input enrichment [ratio]": 4.62}
{"Sequence": "GGAACAUUUCAGGAAUGAAGAUAAUAACAUAGAUUUUAUGGUGGCCUCUAUGCAGUUUAUUAACAUUGUAGUCCAUUCAGUAGAAGACAUGAACUUCAGAGUUCAUCUACAAUAUGAAUU", "bound/input enrichment [ratio]": 2.68}
{"Sequence": "AGUGAAGUUCAGGCAAACCUUUCUCUGUUCCUAGAGGCAGCUAGUGGCUUCUAUACUCAGUUAUUACAAGAACUGUGUACAGUAUUUAAUGUAGAUUUACCAUGCCGUGUGAAGUCUUCC", "bound/input enrichment [ratio]": 0.817}
{"Sequence": "GGGGAGGUGUACGCUGAGUGUCUUAGUGACAGCAGCAUCUUUGUUCAGAGUAGGAACUGCAACUUUCACCAUGGCUUCCAUCCCACCACCGUCUGUAAGAUCCCCAGCAGCUGCAGCCUC", "bound/input enrichment [ratio]": 0.205}
{"Sequence": "CCUGCCCUCUCCGAGGCCUGCUCAGCUGCCUUCCAGACGGCCCUACCAGCCAGCCCCACCUGGCCACCACGCCCACCGACAGCUCGUGUUCCAGUGGCCCAACUGGUGACGGGGUCCAGG", "bound/input enrichment [ratio]": 0.117}
{"data": "Study 2", "target": "OGT, full length, His-tagged (human)", "method": "phage display, sequencing", "matrix": "in vitro", "concentration": "1 µg OGT", "setting": "single substitutions, 15-mer displayed peptide, unchanged parent 5.27", "relative to": "input library", "direction": "higher = stronger binding", "starting sequence": "peptide; GDFPVMFMPKYSIIY"}
{"Substitution": "I14E", "fold enrichment [fold]": 2.65}
{"Substitution": "I14L", "fold enrichment [fold]": 2.61}
{"Substitution": "Y15N", "fold enrichment [fold]": 1.57}
{"Substitution": "F3E", "fold enrichment [fold]": 4.44}
{"Substitution": "K10Q", "fold enrichment [fold]": 2.53}
{"Substitution": "F7D", "fold enrichment [fold]": 1.42}
{"Substitution": "M8L", "fold enrichment [fold]": 6.98}
{"Substitution": "F3M", "fold enrichment [fold]": 3.35}
{"data": "Study 3", "target": "Probable WRKY transcription factor 33, C-terminal DNA-binding domain (WRKY33, Arabidopsis thaliana, UniProt Q8S8P5, residues 346-449)", "method": "DNA-protein interaction ELISA", "form": "double-stranded DNA, one strand shown", "matrix": "in vitro, bacterial lysate", "concentration": "not given", "setting": "whole dsDNA probe, crude lysate protein", "relative to": "highest signal in screen", "direction": "higher = stronger binding", "Target sequence (chain)": "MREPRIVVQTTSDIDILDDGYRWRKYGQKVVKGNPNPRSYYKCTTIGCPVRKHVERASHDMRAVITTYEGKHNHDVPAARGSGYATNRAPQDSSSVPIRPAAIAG"}
{"Sequence": "AAAAAACCGCTTACATTGCGTTGTCGAAAA", "relative absorbance": "26.4 % of maximum"}
{"Sequence": "AAAAAATATATTTTCAGCTTTAATCTAAAA", "relative absorbance": "40.8 % of maximum"}
{"Sequence": "AAAAAAGTTTCTGCTTTCCCTTTCGTAAAA", "relative absorbance": "30.6 % of maximum"}
{"Sequence": "AAAAAATTACTATTACACACTTGGGGAAAA", "relative absorbance": "30.5 % of maximum"}
{"Sequence": "AAAAAATGGGGCTCTGGCCCACCGTAAAAA", "relative absorbance": "40.7 % of maximum"}
{"Sequence": "AAAAAAACCCGTGCCTGCCTATTGCAAAAA", "relative absorbance": "33.8 % of maximum"}
{"Sequence": "AAAAAATTTTGTGGTGTTTCGCCACCAAAA", "relative absorbance": "29.7 % of maximum"}
{"Sequence": "AAAAAAAGTAGTTACTGCGAAAGTCTAAAA", "relative absorbance": "35.3 % of maximum"}
{"data": "Study 4", "target": "CCNE2, cyclin fold, Cln2 fusion (human)", "method": "yeast growth competition, sequencing", "matrix": "yeast", "setting": "strong parent motif", "relative to": "not given", "direction": "higher = stronger binding", "starting sequence": "viral docking peptide; YKVKRRLVFGADD"}
{"Substitution": "YKVKHRLVFGADD [R5H]", "normalised enrichment score": 0.779}
{"Substitution": "YKVKRRLVFSADD [G10S]", "normalised enrichment score": 5.06}
{"Substitution": "YKVKRRLVFGFDD [A11F]", "normalised enrichment score": 5.19}
{"Substitution": "YKVKRRLVFGTDD [A11T]", "normalised enrichment score": 6.16}
{"Substitution": "YKVMRRLVFGADD [K4M]", "normalised enrichment score": 1.38}
{"Substitution": "YKVHRRLVFGADD [K4H]", "normalised enrichment score": 1.35}
{"Substitution": "YKVNRRLVFGADD [K4N]", "normalised enrichment score": 3.69}
{"Substitution": "YKRKRRLVFGADD [V3R]", "normalised enrichment score": 0.67}
{"Substitution": "YKVKRRLVFDADD [G10D]", "normalised enrichment score": 6.12}
{"Substitution": "YKVKRRLVFGYDD [A11Y]", "normalised enrichment score": 5.25}
{"Substitution": "YKVKRRLVFGAID [D12I]", "normalised enrichment score": 5.33}
{"Substitution": "YMVKRRLVFGADD [K2M]", "normalised enrichment score": 5.35}
{"Substitution": "YKVKRRLVGGADD [F9G]", "normalised enrichment score": 0.582}
{"Substitution": "YKSKRRLVFGADD [V3S]", "normalised enrichment score": 0.8}
{"Substitution": "YKVKRRLSFGADD [V8S]", "normalised enrichment score": 5.11}
{"Substitution": "YKGKRRLVFGADD [V3G]", "normalised enrichment score": 1.4}
{"Substitution": "YKVKRRLAFGADD [V8A]", "normalised enrichment score": 3.77}
{"Substitution": "YKEKRRLVFGADD [V3E]", "normalised enrichment score": 0.483}
{"Substitution": "YKVKRRLVFGGDD [A11G]", "normalised enrichment score": 5.88}
{"Substitution": "YKVKRGLVFGADD [R6G]", "normalised enrichment score": -0.179}
{"Substitution": "YKVKRDLVFGADD [R6D]", "normalised enrichment score": 0.278}
{"Substitution": "YKVKRRVVFGADD [L7V]", "normalised enrichment score": 0.555}
{"Substitution": "YKVKRRLVKGADD [F9K]", "normalised enrichment score": 0.167}
{"Substitution": "YKVKLRLVFGADD [R5L]", "normalised enrichment score": 0.0561}
{"Substitution": "YKVKRRLFFGADD [V8F]", "normalised enrichment score": 6.21}
{"data": "Study 5", "target": "Interferon regulatory factor 5, full length, phosphomimetic (IRF5, Homo sapiens, UniProt Q13568-2, residues 1-514, S451D/S453D/S456D/S462D)", "method": "protein-binding microarray", "form": "double-stranded DNA, one strand shown", "matrix": "in vitro", "concentration": "940 nM top", "setting": "60-bp whole probe", "with": "salmon DNA 0.4 mg/ml", "relative to": "random background probes", "direction": "higher = stronger binding", "constant ends, left off below": "GCCTAGCAC … GTCTTGATTCGCTTGACGCTGCTG"}
{"Sequence": "TTAGGTACCGGGACTGGGTTAGTGCTA", "fitted relative affinity": "-0.015 z-score"}
{"Sequence": "CTAGATCTCAGACTGGATTAGTGCTAG", "fitted relative affinity": "-0.208 z-score"}
{"Sequence": "TACGGTATCCTTATCCTGACGTGCTAG", "fitted relative affinity": "0.351 z-score"}
{"Sequence": "GACGATTTCAGTATCCAGACGTGCTAG", "fitted relative affinity": "0.502 z-score"}
{"Sequence": "TTAGATCTCAGTAACGATTAGTGCTAG", "fitted relative affinity": "0.265 z-score"}
{"Sequence": "TTAGGTATCGGTATCGGTCAGTGCTAG", "fitted relative affinity": "10.6 z-score"}
{"Sequence": "GACGGTATCCTACTGCTGATGTGCTAG", "fitted relative affinity": "-0.0385 z-score"}
{"Sequence": "TTATGTATCGACACTGGGTTAGTGCTA", "fitted relative affinity": "1.9 z-score"}
{"note": "For quick reference, copied from above (study 4):"}
{"Substitution": "YKVKRRLVGGADD [F9G]", "normalised enrichment score": 0.582}
{"Substitution": "YKSKRRLVFGADD [V3S]", "normalised enrichment score": 0.8}
{"Substitution": "YKVKRRLSFGADD [V8S]", "normalised enrichment score": 5.11}
{"Substitution": "YKGKRRLVFGADD [V3G]", "normalised enrichment score": 1.4}
{"Substitution": "YKVKRRLAFGADD [V8A]", "normalised enrichment score": 3.77}
{"Substitution": "YKEKRRLVFGADD [V3E]", "normalised enrichment score": 0.483}
{"Substitution": "YKVKRRLVFGGDD [A11G]", "normalised enrichment score": 5.88}
